Measurements gathered from unrelated publications.
Protocols differ between the studies behind these lines. Values joined by “and” are separate records of one study, mostly repeats; a detail may differ. ± marks the error that the study gave.

SMILES = Fc1ccc(-c2ccnc3[nH]c(C(F)(F)F)nc23)cc1; tested on = L6 myoblasts; assay = oxygen consumption rate, Seahorse XF; how to read = reference: BAM15 maximal respiration; quantity = Emax; result = 6 to 22%
SMILES = Cc1cccc(-c2[nH]c(CNc3ccccc3F)nc2-c2ccc3ncnn3c2)n1; tested on = MM1.S pomalidomide-resistant; assay = XTT; conditions = 0.75 µM; how to read = reference: untreated; quantity = viability; result = 91%
SMILES = CCn1cc(-c2cc(Cn3ccnc3)cc3c2CCN([C@H](c2cc(OC)ccn2)C2CC2)C3=O)c(C(F)(F)F)n1; tested on = JVM-2; assay = cell growth, inhibitor; conditions = 120 h; quantity = EC50; result = 9.35 µM
SMILES = O=C(/C=C/C=C/C=C/C1CCCCC1)NC1=C[C@@](O)(/C=C/C=C/C=C/C(=O)NC2=C(O)CCC2=O)[C@@H]2O[C@@H]2C1=O; tested on = CAL-51; assay = cell growth, CellTiter-Glo; conditions = 78 h; quantity = GI50; result = 15.6 µM
SMILES = CC(C)C[C@H](NC(=O)CNC(=O)c1cc(Cl)ccc1Cl)B1OC(=O)C(CC(=O)O)(CC(=O)O)O1; tested on = BT-16; assay = cell viability, MTT; conditions = 10 µM, 72 h; quantity = inhibition; result = 95.1%
SMILES = Cn1cc(-c2ccc(-c3cncc(Cl)c3N3CCC4(CCNC4=O)CC3)cc2)cn1; tested on = COLO 205; assay = gene expression, microarray, refers to: DDB2 mRNA; conditions = concentration not given, 2 h; how to read = reference: untreated cells; quantity = log2 fold change; result = 2.1
SMILES = CCn1c(=O)c(-c2cc[nH]n2)cc2c(C)nc(N)nc21; tested on = enterovirus A71; system = suckling mouse, EV71-infected, spleen; conditions = 0.25 mg/kg; how to read = direction not given; quantity = white pulp integrity score; result = 0
SMILES = c1coc(-c2n[nH]cc2-c2ccnc3ccccc23)c1; tested on = PKH3 (Candida albicans); assay = kinase binding, MIB/MS competition; system = Candida albicans lysate; conditions = 1 µM; how to read = reference: DMSO; quantity = log2 fold change; result = -0.24
SMILES = CC(C)C[C@H](NC(=O)C[C@H](O)[C@H](CC(C)C)NC(=O)[C@H](Cc1c[nH]cn1)NC(=O)CNC(=O)[C@@H](NC(=O)[C@H](C)NC(=O)[C@H](Cc1c[nH]c2ccccc12)NC(=O)[C@H](CCC(N)=O)NC(=O)[C@@H](Cc1ccccc1)NC(=O)COCCOCCNC(=O)CCC(C(=O)O)N1CCN(CC(=O)O)CCN(CC(=O)O)CCN(CC(=O)O)CC1)C(C)C)C(N)=O (stereo partly drawn) [lutetium-177 labelled]; system = female BALB/c nu/nu mice, spleen; conditions = intravenous, 100 pmol, 2 h, together with: PA 300 µg; quantity = tissue uptake; result = 0.19 ± 0.08 %ID/g
SMILES = O=C1CC[C@@]2(O)[C@H]3Cc4ccc(O)c5c4[C@@]2(CCN3CC2CC2)[C@H]1O5; tested on = rabbit epithelial cells; assay = opioid peptide transport; conditions = 250 µM, 15 min, NaCl medium; how to read = reference: control; quantity = [3H]deltorphin II uptake; result = 119%
SMILES = Cc1cc(Nc2ccc(S(F)(F)(F)(F)F)cc2)n2nc(C(C)(F)F)nc2n1; tested on = Plasmodium vivax; assay = 12-lead Holter ECG; system = human malaria patients; conditions = oral, 400 mg, QTc above 500 ms; quantity = patients with QTcB above threshold; result = 0%
SMILES = OC1(c2ccc(Cl)c(C(F)(F)F)c2)CCN(CCCC(c2ccc(F)cc2)c2ccc(F)cc2)CC1; tested on = BT-16; assay = cell viability, MTT; conditions = 10 µM, 72 h; quantity = inhibition; result = 94.9%
SMILES = Cc1cc(Nc2ncc(Cl)c(Nc3ccccc3S(=O)(=O)C(C)C)n2)c(OC(C)C)cc1C1CCNCC1; tested on = CLB-GE; assay = phosphoproteomics LC-MS/MS, refers to: EEF2K phosphorylation; conditions = 200 nM, 60 min; how to read = reference: untreated; quantity = log2 fold change; result = -1.88
SMILES = CSc1cc(Oc2ccnc3[nH]c(=O)cnc23)ccc1NC(=O)Nc1cc(C(C)(C)C)nn1-c1ccccc1; tested on = patient-derived cell line clone B; assay = RPPA, refers to: phosphorylated Tuberin; system = human; conditions = 1 µM, 4 h; how to read = reference: DMSO; quantity = phospho ratio; result = 0.75
SMILES = CC(C)C[C@H](NC(=O)C[C@H](O)[C@H](CC(C)C)NC(=O)[C@H](Cc1c[nH]cn1)NC(=O)CNC(=O)[C@@H](NC(=O)[C@H](C)NC(=O)[C@H](Cc1c[nH]c2ccccc12)NC(=O)[C@H](CCC(N)=O)NC(=O)[C@@H](Cc1ccccc1)NC(=O)COCCOCCNC(=O)CCC(C(=O)O)N1CCN(CC(=O)O)CCN(CC(=O)O)CC1)C(C)C)C(N)=O (stereo partly drawn) [lutetium-177 labelled]; system = female BALB/c nu/nu mice, lung; conditions = intravenous, 50 pmol, 1 h; quantity = tissue uptake; result = 0.5 ± 0.2 %ID/g
SMILES = CCN(CCO)CCCC(C)Nc1ccnc2cc(Cl)ccc12 (stereo not drawn); tested on = human PBMC; assay = qRT-PCR, refers to: CXCL10 mRNA; conditions = 1000 nM, together with: ssRNA; quantity = inhibition; result = 14 ± 24%
SMILES = O=C(O)CNC(=O)Cc1ccccc1; system = ventricular cardiomyocytes, C57BL/6 mouse; conditions = dose not given, 0.384 s; quantity = sarcomere length; result = 1.72 µm
SMILES = Nc1nc(Nc2ccc(S(N)(=O)=O)cc2)nn1C(=O)c1c(F)cccc1F; tested on = BT-16; assay = cell viability, MTT; conditions = 10 µM, 72 h; quantity = inhibition; result = 92.1%
SMILES = CCCCN1C[C@H](O)[C@@H](O)[C@@H](O)[C@H]1CO; tested on = sample F patient fibroblasts; assay = Gb3 level lowering, LC-MS/MS, refers to: Gb3 d18:1/24:1; conditions = 216 h; quantity = IC50; result = 8.3 µM
SMILES = COc1cnc2cccc(N3CCc4c(cc(Cn5ccnc5C)cc4-c4cn(C)nc4C(F)(F)F)C3=O)c2c1; tested on = COLO-320-HSR; assay = cell growth, inhibitor; conditions = 120 h; quantity = EC50; result = 1.5 µM
SMILES = C=CC(=O)Nc1cc(Nc2nccc(-c3cn(C)c4ccccc34)n2)c(OC)cc1N(C)CCN(C)C; tested on = PC-9; assay = qRT-PCR; conditions = 8 µM, 24 h; how to read = reference: untreated; quantity = MAPK1 mRNA level; result = ~1.5 fold
SMILES = CCc1cnc(N2CCC(c3nc(COc4ccc(-n5cnnn5)cc4)cs3)CC2)nc1; tested on = HEK293T; assay = RNA-seq, refers to: ATF3 mRNA; conditions = 10 µM, 6 h; how to read = reference: vehicle; quantity = log2 fold change; result = 1.31
SMILES = NC(=O)c1cnc2[nH]ccc2c1N[C@@H]1[C@@H]2CC3C[C@H]1C[C@@](O)(C3)C2; assay = flow cytometry, refers to: CD4+ central memory T cells; system = Japanese healthy subjects, peripheral blood; conditions = oral, 30 mg twice daily, day 7; quantity = change from baseline; result = 0.32%
SMILES = C[C@H]1[C@@H](O)O[C@@H]2O[C@@]3(C)CC[C@H]4[C@H](C)CC[C@@H]1[C@@]24OO3; tested on = THP-1; assay = annexin V/PI flow cytometry, refers to: annexin V+/PI-; conditions = 0.2 µM, 24 h; quantity = early apoptotic cells; result = 2.7%
SMILES = CC(C)n1ncc2c(C(=O)NCC3(C)CNC3)cc(C3CC3)nc21; tested on = enterovirus A71; system = Tainan/4643/1998; conditions = 0.01 µM; quantity = plaque area; result = 101% and 95.9%
SMILES = N#Cc1ccc2c(c1)[C@H]1CCCN(C(=O)c3ccc4[nH]cnc4c3)[C@H]1C2; assay = refers to: ACTH; system = human, Phase II trial; conditions = oral, 80 mg once daily, last treatment, HPA axis, mean; quantity = plasma level; result = 10.7 pmol/L
SMILES = CNC(=O)c1ccc(Nc2ncc(C(F)(F)F)c(NCc3nccnc3N(C)S(C)(=O)=O)n2)cc1; tested on = BT-16; assay = cell viability, MTT; conditions = 10 µM, 72 h; quantity = inhibition; result = 90.1%
SMILES = CC(C)[C@H](NC(=O)[C@H](Cc1ccc(O)cc1)NC(=O)[C@H](Cc1ccc(O)cc1)NC(=O)[C@@H]1CCCN1C(=O)[C@H](CCC(=O)O)NC(=O)[C@H](CCC(=O)O)NC(=O)[C@H](Cc1c[nH]c2ccccc12)NC(=O)[C@@H]1CCCN1C(=O)[C@@H](NC(=O)[C@H](CCC(N)=O)NC(=O)c1ccc2c(c1)C(=O)OC21c2ccc(O)cc2Oc2cc(O)ccc21)C(C)C)C(=O)N[C@H](C(=O)N[C@@H](CCCCN)C(=O)N[C@@H](CCCCN)C(=O)N[C@@H](CO)C(=O)N[C@@H](CO)C(=O)NCC(=O)NCC(N)=O)C(C)C; system = human, plasma; conditions = intravenous infusion, 500 mg, 12 h; quantity = plasma concentration; result = 18.1 ng/mL
SMILES = C[S+]([O-])c1ccc(-c2nc(-c3ccncc3)c(-c3ccc(F)cc3)[nH]2)cc1 (stereo not drawn); tested on = mouse bone marrow macrophages; assay = TRAP-positive multinucleated cells; conditions = 10 µM, 96 h, late stage, together with: RANKL; how to read = reference: control; quantity = osteoclastogenesis; result = 62%
SMILES = Nc1ncnc2c1ncn2[C@@H]1O[C@H](CO)[C@@H](O)[C@H]1O; tested on = unstimulated human T cells; conditions = 316 nM, 72 h; how to read = higher = more viable cells; quantity = viability; result = 75.4 a.u. and 82.5 a.u. and 84.6 a.u.

A few entries again:
SMILES = Cc1cccc(-c2[nH]c(CNc3ccccc3F)nc2-c2ccc3ncnn3c2)n1; tested on = MM1.S pomalidomide-resistant; assay = XTT; conditions = 0.75 µM; how to read = reference: untreated; quantity = viability; result = 91%
SMILES = Nc1ncnc2c1ncn2[C@@H]1O[C@H](CO)[C@@H](O)[C@H]1O; tested on = unstimulated human T cells; conditions = 316 nM, 72 h; how to read = higher = more viable cells; quantity = viability; result = 75.4 a.u. and 82.5 a.u. and 84.6 a.u.
SMILES = CCn1cc(-c2cc(Cn3ccnc3)cc3c2CCN([C@H](c2cc(OC)ccn2)C2CC2)C3=O)c(C(F)(F)F)n1; tested on = JVM-2; assay = cell growth, inhibitor; conditions = 120 h; quantity = EC50; result = 9.35 µM
